{"data": "Results of several laboratories", "note": "Numbered parts are unrelated; each lists some results of a single study.", "sequence of UniProt Q9BWU1 (whole entry, looked up)": "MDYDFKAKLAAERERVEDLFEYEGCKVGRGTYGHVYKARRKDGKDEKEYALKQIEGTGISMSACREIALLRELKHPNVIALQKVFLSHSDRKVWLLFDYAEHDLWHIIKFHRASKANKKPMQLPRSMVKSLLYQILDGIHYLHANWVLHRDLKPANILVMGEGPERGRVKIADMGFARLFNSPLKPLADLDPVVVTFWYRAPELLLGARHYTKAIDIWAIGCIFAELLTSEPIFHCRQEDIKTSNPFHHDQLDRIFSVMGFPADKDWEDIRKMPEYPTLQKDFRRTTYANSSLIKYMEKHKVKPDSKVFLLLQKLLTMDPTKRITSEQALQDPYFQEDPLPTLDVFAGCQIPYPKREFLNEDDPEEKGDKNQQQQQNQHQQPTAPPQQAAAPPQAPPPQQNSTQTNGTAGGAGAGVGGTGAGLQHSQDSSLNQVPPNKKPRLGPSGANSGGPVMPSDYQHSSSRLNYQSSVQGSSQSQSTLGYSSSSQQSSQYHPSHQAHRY", "sequence of UniProt P29322 (whole entry, looked up)": "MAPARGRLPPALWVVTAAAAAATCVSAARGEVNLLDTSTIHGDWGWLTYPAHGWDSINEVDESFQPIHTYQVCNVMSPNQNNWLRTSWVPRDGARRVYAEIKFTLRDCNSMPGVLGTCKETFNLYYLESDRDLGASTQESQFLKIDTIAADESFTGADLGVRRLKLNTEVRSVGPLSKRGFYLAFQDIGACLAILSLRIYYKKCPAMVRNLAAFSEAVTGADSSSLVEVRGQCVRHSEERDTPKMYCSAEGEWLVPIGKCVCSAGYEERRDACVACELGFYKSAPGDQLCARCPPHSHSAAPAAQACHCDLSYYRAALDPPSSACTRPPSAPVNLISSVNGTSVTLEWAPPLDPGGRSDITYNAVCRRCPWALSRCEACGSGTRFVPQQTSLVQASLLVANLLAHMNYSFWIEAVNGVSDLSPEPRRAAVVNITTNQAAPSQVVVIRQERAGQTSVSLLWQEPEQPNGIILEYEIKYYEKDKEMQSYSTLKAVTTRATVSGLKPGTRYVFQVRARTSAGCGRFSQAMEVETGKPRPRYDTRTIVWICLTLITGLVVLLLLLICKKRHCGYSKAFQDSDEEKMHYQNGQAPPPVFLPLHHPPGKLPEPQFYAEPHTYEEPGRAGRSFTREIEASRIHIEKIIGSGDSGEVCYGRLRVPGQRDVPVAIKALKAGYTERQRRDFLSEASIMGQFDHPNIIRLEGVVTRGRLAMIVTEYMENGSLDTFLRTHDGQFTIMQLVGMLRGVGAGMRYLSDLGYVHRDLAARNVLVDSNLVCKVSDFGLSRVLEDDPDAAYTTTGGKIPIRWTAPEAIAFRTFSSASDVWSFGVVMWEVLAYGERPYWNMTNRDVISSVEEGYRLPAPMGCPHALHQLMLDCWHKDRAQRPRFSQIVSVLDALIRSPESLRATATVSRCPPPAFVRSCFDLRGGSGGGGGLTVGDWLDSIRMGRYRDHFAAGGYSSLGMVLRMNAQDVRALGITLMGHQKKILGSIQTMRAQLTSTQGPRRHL", "sequence of UniProt Q9UQ88 (whole entry, looked up)": "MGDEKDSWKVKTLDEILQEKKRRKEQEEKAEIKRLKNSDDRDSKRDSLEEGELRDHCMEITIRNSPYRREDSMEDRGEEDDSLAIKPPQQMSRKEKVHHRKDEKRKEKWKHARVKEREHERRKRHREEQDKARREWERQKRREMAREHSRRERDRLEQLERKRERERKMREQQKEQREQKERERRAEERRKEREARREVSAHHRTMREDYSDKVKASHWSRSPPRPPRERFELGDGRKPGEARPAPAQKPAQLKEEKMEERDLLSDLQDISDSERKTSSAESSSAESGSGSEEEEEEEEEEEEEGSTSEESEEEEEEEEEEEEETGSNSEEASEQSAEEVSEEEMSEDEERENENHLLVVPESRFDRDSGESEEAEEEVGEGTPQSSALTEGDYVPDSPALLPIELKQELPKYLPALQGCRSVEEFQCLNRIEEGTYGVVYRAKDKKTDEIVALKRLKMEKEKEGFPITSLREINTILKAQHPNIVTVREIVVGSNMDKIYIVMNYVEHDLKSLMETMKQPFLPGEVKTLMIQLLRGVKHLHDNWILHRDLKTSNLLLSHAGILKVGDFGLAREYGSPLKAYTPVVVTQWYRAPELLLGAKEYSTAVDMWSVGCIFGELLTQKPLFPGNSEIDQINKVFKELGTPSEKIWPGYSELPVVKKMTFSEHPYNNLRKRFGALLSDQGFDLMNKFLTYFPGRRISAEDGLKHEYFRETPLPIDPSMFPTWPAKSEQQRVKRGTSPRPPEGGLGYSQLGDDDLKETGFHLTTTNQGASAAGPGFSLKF", "sequence of UniProt P42336 (whole entry, unmodified, looked up)": "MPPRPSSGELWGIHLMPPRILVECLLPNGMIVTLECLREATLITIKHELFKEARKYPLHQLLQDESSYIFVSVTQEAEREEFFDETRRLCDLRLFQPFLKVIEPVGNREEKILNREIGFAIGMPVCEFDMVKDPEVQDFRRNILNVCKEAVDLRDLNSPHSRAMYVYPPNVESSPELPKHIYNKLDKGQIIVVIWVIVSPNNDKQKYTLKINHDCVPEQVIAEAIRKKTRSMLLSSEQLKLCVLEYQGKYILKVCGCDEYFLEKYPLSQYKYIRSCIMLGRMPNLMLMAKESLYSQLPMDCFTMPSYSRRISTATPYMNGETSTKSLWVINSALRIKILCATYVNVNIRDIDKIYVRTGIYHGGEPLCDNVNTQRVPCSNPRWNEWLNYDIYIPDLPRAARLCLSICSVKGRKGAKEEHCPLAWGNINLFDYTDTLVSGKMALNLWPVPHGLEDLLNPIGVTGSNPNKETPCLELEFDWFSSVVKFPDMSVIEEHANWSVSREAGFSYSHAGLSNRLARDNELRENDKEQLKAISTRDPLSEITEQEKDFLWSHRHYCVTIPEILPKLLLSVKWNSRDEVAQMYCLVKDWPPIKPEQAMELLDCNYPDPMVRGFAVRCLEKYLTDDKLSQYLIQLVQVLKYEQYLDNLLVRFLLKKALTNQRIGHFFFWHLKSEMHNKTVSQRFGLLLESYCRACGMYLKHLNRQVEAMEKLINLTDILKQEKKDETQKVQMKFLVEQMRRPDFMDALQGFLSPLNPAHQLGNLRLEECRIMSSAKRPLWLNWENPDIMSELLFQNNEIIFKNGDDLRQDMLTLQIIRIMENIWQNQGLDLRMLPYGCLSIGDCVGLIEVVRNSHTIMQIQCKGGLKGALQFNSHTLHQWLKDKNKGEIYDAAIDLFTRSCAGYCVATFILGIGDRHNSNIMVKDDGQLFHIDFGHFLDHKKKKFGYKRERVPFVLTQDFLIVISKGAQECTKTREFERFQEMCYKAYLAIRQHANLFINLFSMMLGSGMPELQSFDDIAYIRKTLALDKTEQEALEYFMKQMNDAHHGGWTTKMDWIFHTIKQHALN"}
{"data": "Sample 1", "organism": "Sarcocystis neurona", "observed": "parasite growth", "concentration": "10 µM", "time": "96 h", "relative to": "untreated"}
{"Structure (SMILES)": "O=c1n(CCCN2CCN(c3cccc(Cl)c3)CC2)nc2ccccn12", "log2 fold change": 0.32}
{"Structure (SMILES)": "COc1ccccc1OCCNCC(O)COc1cccc2[nH]c3ccccc3c12 (centres unmarked)", "log2 fold change": -0.59}
{"Structure (SMILES)": "CCC[C@@H]1C[C@@H](C(=O)N[C@@H]([C@H]2O[C@H](SC)[C@H](O)[C@@H](O)[C@H]2O)[C@@H](C)O)N(C)C1", "log2 fold change": -0.26}
{"data": "Sample 2", "SMILES": "Nc1cnc(N2CCc3cc(S(=O)(=O)Nc4c(F)cc(Cl)cc4F)cc(N4CCCC4=O)c32)nc1", "concentration": "1 µM"}
{"target": "CDK11A (Homo sapiens, UniProt Q9UQ88)", "test": "cell-free assay, competition with immobilised ligand", "remaining binding": "89%"}
{"target": "PIK3CA (Homo sapiens, UniProt P42336, Q546K)", "test": "cell-free assay, competition with immobilised ligand", "remaining binding": "78%"}
{"target": "CDK19 (Homo sapiens, UniProt Q9BWU1)", "test": "competition binding", "remaining binding": "100%"}
{"target": "EPHA8 (Homo sapiens, UniProt P29322)", "test": "cell-free assay, competition with immobilised ligand", "remaining binding": "100%"}
{"data": "Sample 3", "host": "human", "sample": "microsomes or S9", "concentration": "2 µM", "time": "0.5 h"}
{"Compound": "CCOC1CC(NC(=O)c2nnn(C3CCNCC3)c2C)C12CCC2 (centres unmarked)", "remaining compound": "0.643%"}
{"Compound": "CC(C)CNc1oc(/C=C/c2cccs2)nc1C#N", "remaining compound": "0.355%"}
{"Compound": "Cn1cc(-c2ccc3nnc(C[C@H](O)CO)n3n2)cn1", "remaining compound": "101%"}
{"data": "Further values, each from its own experiment"}
{"Structure (SMILES)": "CCOC(=O)[C@@H]1CSCC(=O)N[C@@H](CC)C(=O)N(C)[C@@H](C)C(=O)N[C@H](CC(C)C)C(=O)N2CCC[C@H]2C(=O)N(CC)CC(=O)N[C@H](CC(C)C)C(=O)N(C)[C@H](C)C(=O)N[C@@H](CC(C)C)C(=O)N1C", "test system": "hydrocarbon/water", "measurement": "logD", "result": 1.25}
{"note": "For quick reference, copied from above (sample 2):"}
{"target": "CDK19 (Homo sapiens, UniProt Q9BWU1)", "test": "competition binding", "remaining binding": "100%"}
